Results from different studies.
Numbered parts are unrelated; each lists some results of a single study.
UniProt Q9FX25, sequence (whole entry, looked up): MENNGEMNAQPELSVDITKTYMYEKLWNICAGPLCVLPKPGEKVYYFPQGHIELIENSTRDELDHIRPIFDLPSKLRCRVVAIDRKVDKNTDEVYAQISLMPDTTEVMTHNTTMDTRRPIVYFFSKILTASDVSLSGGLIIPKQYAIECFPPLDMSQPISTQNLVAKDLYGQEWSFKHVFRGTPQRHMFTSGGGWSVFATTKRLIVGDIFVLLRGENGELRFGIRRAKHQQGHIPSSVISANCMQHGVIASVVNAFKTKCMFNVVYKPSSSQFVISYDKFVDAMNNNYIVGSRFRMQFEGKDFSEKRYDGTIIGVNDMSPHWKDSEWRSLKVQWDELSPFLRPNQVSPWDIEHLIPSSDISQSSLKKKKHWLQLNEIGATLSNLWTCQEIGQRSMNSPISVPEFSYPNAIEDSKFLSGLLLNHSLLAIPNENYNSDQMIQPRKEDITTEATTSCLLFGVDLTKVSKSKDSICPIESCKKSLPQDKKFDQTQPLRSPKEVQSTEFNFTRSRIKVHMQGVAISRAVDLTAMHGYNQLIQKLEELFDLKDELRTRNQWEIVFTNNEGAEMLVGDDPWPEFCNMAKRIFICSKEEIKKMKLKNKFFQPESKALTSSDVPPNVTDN
UniProt Q8LAL2, sequence (whole entry, looked up): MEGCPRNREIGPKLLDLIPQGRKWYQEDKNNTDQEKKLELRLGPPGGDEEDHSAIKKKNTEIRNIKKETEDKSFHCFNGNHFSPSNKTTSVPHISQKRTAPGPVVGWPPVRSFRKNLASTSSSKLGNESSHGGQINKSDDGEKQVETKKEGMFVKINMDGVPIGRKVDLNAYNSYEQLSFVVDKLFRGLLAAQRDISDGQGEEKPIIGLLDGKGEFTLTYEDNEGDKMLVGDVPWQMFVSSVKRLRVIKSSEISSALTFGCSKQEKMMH
UniProt Q93WC4, sequence (whole entry, looked up): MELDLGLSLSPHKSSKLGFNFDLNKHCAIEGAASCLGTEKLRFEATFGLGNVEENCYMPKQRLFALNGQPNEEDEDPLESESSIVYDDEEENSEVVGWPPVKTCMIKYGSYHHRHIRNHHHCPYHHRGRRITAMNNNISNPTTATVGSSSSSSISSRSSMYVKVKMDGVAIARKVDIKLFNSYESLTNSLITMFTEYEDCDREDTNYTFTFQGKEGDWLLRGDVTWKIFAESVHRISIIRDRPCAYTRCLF
UniProt O23661, sequence (whole entry, looked up): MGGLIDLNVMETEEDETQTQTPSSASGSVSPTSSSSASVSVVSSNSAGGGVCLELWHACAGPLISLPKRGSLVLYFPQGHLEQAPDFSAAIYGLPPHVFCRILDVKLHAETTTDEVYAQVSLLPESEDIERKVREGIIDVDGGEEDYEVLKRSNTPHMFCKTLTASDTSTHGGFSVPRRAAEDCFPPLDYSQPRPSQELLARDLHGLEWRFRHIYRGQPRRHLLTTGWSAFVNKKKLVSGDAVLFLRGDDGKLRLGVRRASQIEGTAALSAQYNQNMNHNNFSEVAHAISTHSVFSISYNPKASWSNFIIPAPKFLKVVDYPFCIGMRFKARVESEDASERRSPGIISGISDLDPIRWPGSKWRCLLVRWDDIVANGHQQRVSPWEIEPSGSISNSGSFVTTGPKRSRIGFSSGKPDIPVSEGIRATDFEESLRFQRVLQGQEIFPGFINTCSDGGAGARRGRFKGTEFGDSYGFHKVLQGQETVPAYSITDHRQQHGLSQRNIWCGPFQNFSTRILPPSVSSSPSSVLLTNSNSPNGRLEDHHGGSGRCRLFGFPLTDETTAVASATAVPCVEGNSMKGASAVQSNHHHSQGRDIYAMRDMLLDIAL

Study 1
Target: Interferon regulatory factor 5, full length, phosphomimetic (IRF5, Homo sapiens, UniProt Q13568-2, residues 1-514, K96S/S451D/S453D/S456D/S462D)
Technique: protein-binding microarray
Form: double-stranded DNA, one strand shown
Medium: in vitro
Tested at: 250 nM
Notes: 60-bp whole probe
With: salmon DNA 0.4 mg/ml
Relative to: random background probes
Direction: higher = stronger binding
Quantity: log fluorescence
Shared flanks, not repeated: GCCTAGCAC … GTCTTGATTCGCTTGACGCTGCTG
GACGGTATACTTCTCCTGACGTGCTAG: 0.0728 z-score
TCAGGTATTTTTCTAAAACTGTGCTAG: 0.292 z-score
TCAGGAAACCGGAAAGGCACTGTGCTA: -0.181 z-score
TTAAGTATCGGGTATCGGTTAGTGCTA: 7.81 z-score
TCAGCTCTCCGGGGTCTGACTGTGCTA: -0.341 z-score
AACAGGAGCAGATGGGAAGTGTGCTAG: -0.325 z-score
TTAGGTATCGGTTTCGGTAAGTGCTAG: 10.7 z-score
GACGAACTGAGTATCGGGACGTGCTAG: 1.42 z-score
TCATATATATTTATGTAACTGTGCTAG: 0.547 z-score
GACGAACTGAGGATCGAGACGTGCTAG: -0.329 z-score
GACGGTTTCGCGACTGGGGACGTGCTA: 1.01 z-score
GACGATATCGGGTATTGAGACGTGCTA: 1.72 z-score
TTAGCTCTCGGACTGGGTTAGTGCTAG: -0.305 z-score
GACGGTATCGACACTGGGTACGTGCTA: 1.73 z-score
TCATCTCCCAAGTCTTGTACTGTGCTA: 0.0827 z-score
GACAATTTCAGTCTCGAGACGTGCTAG: 2.82 z-score
GACGGACTGGACTTCCGGGACGTGCTA: -0.233 z-score
TTAGGACTGCTTCACCTTTAGTGCTAG: -0.376 z-score
TTAGTTTTCGGTTCCGGTTAGTGCTAG: 9.67 z-score
GACGATTTCAGTTCCGAGCCGTGCTAG: 1.18 z-score

Study 2
Target: RNA binding protein fox-1 homolog 2, RRM domain, GST-SBP tag (RBFOX2, Homo sapiens, UniProt O43251-10, residues 100-194)
Technique: RNA Bind-n-Seq
Form: RNA
Medium: in vitro
Tested at: 365 nM
Notes: natural RNA segment, single round, ends assumed
Relative to: no-protein control
Direction: higher = stronger binding
Quantity: RBNS enrichment (R)
Residues (chain): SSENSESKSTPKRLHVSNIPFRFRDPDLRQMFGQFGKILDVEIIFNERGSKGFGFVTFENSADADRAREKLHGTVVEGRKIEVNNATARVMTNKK
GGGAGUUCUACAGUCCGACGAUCUUUGACUCCCACAUUGGUUGAUCACACAAAACUGUCAGCAUUUGGGUAAUCUGAUGUAUAGUUGUUUUGUUGCUGAUGUUUCCAUUGAAAUUUCAGCUCUGAGUUUGUGCUGGAAUUCUCGGGUGCCAA: 0.29
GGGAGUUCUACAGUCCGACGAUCGACAUUACGUUCAAGUGGGCCUCCUGGAACUUAAGAACAAGCACCUCUCCUGUCCCCUUCUGUGUGCACAUAGGUCCAUAGGCUCAUUAGAGGGAUGAGAGUUCCCAUUAUGGAAUUCUCGGGUGCCAA: 0.413
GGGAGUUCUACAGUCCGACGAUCACCCAGAAAUGGAGCCCGGAGCCCAAUUCCAGAGAGGAAGGGAAAGAAGAGACGAUGCCUGGACAAUGUCUUAUACAUAGGGAACAGAGAGGGAAUCAGAGGUGGCUUAGUGGAAUUCUCGGGUGCCAA: 0.49
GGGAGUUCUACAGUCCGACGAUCGGCCCCAGGGACUCCUGUCAUCUGGUACUCUCCCUCUUACAGAGGAGAGAGCUAGUGGCUUAAAAGGCCUGGGGUGGUGGGGAGAUCACACCACUCUCAACCAUACUCUGUGGAAUUCUCGGGUGCCAA: 0.248
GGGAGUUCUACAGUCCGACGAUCUGCAGACCUUUACCUGUGAGCCCCUAGGCCAAGGCUGUAGCAUUAAAUGACUAUUUAUUCUUCUGCCCCCCUCUAGAGCACUCUUCUUGGCCAGACCCUCUGUCCAAGGCUGGAAUUCUCGGGUGCCAA: 0.258
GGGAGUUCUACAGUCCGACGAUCACUCCUGAAAUCAUAUAGAAAGGCUGGGGUGGGCCCUGUCAUUCGUGGUUGAUUUCAAUACACUCAAGUGCCAUUCAUCCUUUAAGAAAAACAUCUGGAUAUCAAGGUGGUGGAAUUCUCGGGUGCCAA: 0.367
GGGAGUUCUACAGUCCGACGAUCACAGAACUCCAUUCUAAAACCAUGCAAUGUAAUGAGAACAGAGAUCUUUCCUUUUUAAUGAAAACAUUAGCAUGUUAAUACCCCGUAUGAAUAAUGCCUGACAUUCAACAUGGAAUUCUCGGGUGCCAA: 1.89
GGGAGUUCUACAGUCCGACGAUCGGCCCUGGGUAGUCUACCAUUUACUUCACCCCAAGUCCUGCUGCCCAUCCAGUUGGGAAGCCAUGAUUUUCCUAAGAAUCCAGGGCCAUGGGAGAUACAAUUCCAAGUUCUGGAAUUCUCGGGUGCCAA: 0.354
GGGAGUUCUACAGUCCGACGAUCAACAAAUUUUAUCAGCAGUGUUUUUUGUUUUUUUGAGAUGGAGACUUGCUCUGUCGCCCAGGCUGGAGCGCAGUGGCGCAAUCUCGGCUCACUGCAACCUCCACCUCCUGUGGAAUUCUCGGGUGCCAA: 1
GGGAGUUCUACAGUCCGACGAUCUUUUCAUAGUUGGUUCCUGGAGGUGUGCCAAGUGCCCGCUUGCCUCUUCUAGACCCACAGCUUCUUGAUCCACUUGUGGUUUCCAUGUCACUAAUGUAGAAACAUCAUGGUGGAAUUCUCGGGUGCCAA: 0.295
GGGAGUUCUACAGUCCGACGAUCCUUUUGAGCAGCGAUUGCUGGAUCAUUGAUCUGUUUGAGGAAGUGUCUGACCUGGGCCUGAGAGCUGGAGAAGGUGCAGAUUCAAAGUGAGCGGCUCCUGAGGAGAGCCGUGGAAUUCUCGGGUGCCAA: 1.84
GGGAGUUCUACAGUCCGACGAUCAAGCUUUUUUUUCUAGAUUUGACAUUUUUCUGUAUCAUUUUACUGUAUUUUUGCAUGGUUCCUUGUAUUGCAUUUCUUUGCACAUAUUAUGGGCUUGUGACCCUAAACUUUGGAAUUCUCGGGUGCCAA: 22.2

Study 3
Target: Prothrombin, mature alpha-thrombin (F2, Homo sapiens, UniProt P00734)
Technique: aptamer microarray, sandwich
Form: DNA with 2'F-ANA
Medium: in vitro
Tested at: 200 nM
Notes: whole 15-mer aptamer, many near background
With: Cy3 exosite-II aptamer, 400 nM
Direction: higher = stronger binding
Quantity: mean fluorescence intensity
Sequence: GGTTGGTGTGGTTGG
2'F-ANA at 1 2 6 10 12 15: 70.9 a.u.
2'F-ANA at 1 8 9 10 11 12 13 14 15: 52.8 a.u.
2'F-ANA at 1 2 3 4 5 7 8 10 12 14 15: 47.5 a.u.
2'F-ANA at 2 7 9 11 12 14: 214 a.u.
2'F-ANA at 2 8 9 11 12 15: 662 a.u.
2'F-ANA at 7 8 12: 1030 a.u.
2'F-ANA at 2 5 7 10 11 13: 56.1 a.u.
2'F-ANA at 2 3 4 5 7 8 10 11 13: 61.7 a.u.
2'F-ANA at 1 6 7 8 11 12 14 15: 71.6 a.u.
2'F-ANA at 2 5 6 7 14 15: 41.9 a.u.
2'F-ANA at 1 4 6 15: 129 a.u.
2'F-ANA at 1 3 4 8 9 10 11 13: 56.7 a.u.
2'F-ANA at 1 3 6 7 10 14 15: 56.7 a.u.
2'F-ANA at 1 3 4 5 6 7 8 9 15: 65 a.u.
2'F-ANA at 2 3 12 14 15: 496 a.u.
2'F-ANA at 1 2 3 9 13 15: 217 a.u.
2'F-ANA at 1 2 6 8 9 10 12 13 14: 48.7 a.u.
2'F-ANA at 1 3 4 5 13 14 15: 184 a.u.
2'F-ANA at 1 2 6 7 8 9 10: 70.2 a.u.
2'F-ANA at 1 2 3 5 7 8 10 11 13 14 15: 61.9 a.u.
2'F-ANA at 1 2 4 5 6 8 13 14 15: 48.6 a.u.
2'F-ANA at 1 4 5 6 7 9 12 15: 101 a.u.
2'F-ANA at 1 3 5 8 10 11 12 13 14: 55.2 a.u.
2'F-ANA at 1 2 3 6 8 9 10 11 12 15: 73.7 a.u.
2'F-ANA at 3 7 8 9 10 11 13 15: 514 a.u.

Study 4
Target: Histone acetyltransferase KAT6A, both winged helices, GST fusion (KAT6A, Homo sapiens, UniProt Q92794, residues 1-181)
Technique: protein binding microarray
Form: double-stranded DNA, one strand shown
Medium: in vitro
Tested at: not given
Notes: 8-mer, flanks averaged, mean of 2 arrays, mostly near background
Relative to: not given
Direction: higher = stronger binding
Quantity: E-score
Residues (chain): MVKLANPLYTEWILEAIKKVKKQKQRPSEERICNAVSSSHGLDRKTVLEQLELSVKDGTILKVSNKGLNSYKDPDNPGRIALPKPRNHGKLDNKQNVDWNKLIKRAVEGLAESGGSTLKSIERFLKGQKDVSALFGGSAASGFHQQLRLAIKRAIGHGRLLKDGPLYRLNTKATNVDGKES
CTTTCTCC: -0.0916
ATAAGTCA: -0.114
TGATGTAA: -0.048
AAACCATA: -0.00428
CACTGGAG: -0.165
ACTGAACT: -0.0408
TAACCGTA: 0.191
CAAATATC: -0.0905
CTTAGGAC: -0.0937
ATTTTTAG: -0.0379
GATGGTGC: -0.152
GAGCTTTA: 0.0139
TATTTGGA: -0.218
CAGCCGTA: 0.202
GATACCCC: -0.0343
CCAGACCC: -0.0326
GCGTGCCA: 0.167
TAATAAAA: 0.0406
AAGCTTTA: -0.0191
AGAATGCA: -0.0563
GCAGGAAC: -0.034
ACGCTGTG: 0.118
ATGAACAC: -0.0125

Study 5
Partner: ARF19 948-1086 (Arabidopsis thaliana, UniProt Q8RYC8)
Technique: two-hybrid
Relative to: out of 4 tests
Direction: higher = firmer interaction
Quantity: positive tests
Residues (chain): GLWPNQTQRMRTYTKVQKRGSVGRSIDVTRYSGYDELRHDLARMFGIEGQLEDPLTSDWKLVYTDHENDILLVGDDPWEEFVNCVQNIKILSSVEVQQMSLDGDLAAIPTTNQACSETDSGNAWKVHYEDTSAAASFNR
IAA26 (Arabidopsis thaliana, UniProt Q8LAL2): 1
ARF13 (Arabidopsis thaliana, UniProt Q9FX25): 0
ETT (Arabidopsis thaliana, UniProt O23661): 0
IAA29 (Arabidopsis thaliana, UniProt Q93WC4): 3

Some of these lines once more (study 3):
2'F-ANA at 1 8 9 10 11 12 13 14 15: 52.8 a.u.
2'F-ANA at 1 2 3 4 5 7 8 10 12 14 15: 47.5 a.u.
2'F-ANA at 1 3 4 8 9 10 11 13: 56.7 a.u.
2'F-ANA at 1 2 3 6 8 9 10 11 12 15: 73.7 a.u.
2'F-ANA at 3 7 8 9 10 11 13 15: 514 a.u.
2'F-ANA at 7 8 12: 1030 a.u.
2'F-ANA at 2 5 6 7 14 15: 41.9 a.u.
2'F-ANA at 2 8 9 11 12 15: 662 a.u.
2'F-ANA at 1 2 3 9 13 15: 217 a.u.
2'F-ANA at 1 4 6 15: 129 a.u.
2'F-ANA at 1 2 6 10 12 15: 70.9 a.u.
